Measured values of several laboratories.
Protocols differ between the studies behind these lines. Positions count from the first letter of the parent shown.
GZF1: GZF1 250-711 (Homo sapiens, UniProt Q9H116)
CHES-1-like: CHES-1-like 700-785 (Drosophila melanogaster, UniProt Q9W3Q5)
RC3H1: RC3H1 89-407 (Homo sapiens, UniProt Q5TC82)
HRS1: HRS1 1-344 (Arabidopsis thaliana, UniProt Q9FX67)
hutP full length assumed V51I: hutP full length assumed V51I (Bacillus subtilis, UniProt P10943)
T1: loqs Loqs-PD, 1-359 (Drosophila melanogaster); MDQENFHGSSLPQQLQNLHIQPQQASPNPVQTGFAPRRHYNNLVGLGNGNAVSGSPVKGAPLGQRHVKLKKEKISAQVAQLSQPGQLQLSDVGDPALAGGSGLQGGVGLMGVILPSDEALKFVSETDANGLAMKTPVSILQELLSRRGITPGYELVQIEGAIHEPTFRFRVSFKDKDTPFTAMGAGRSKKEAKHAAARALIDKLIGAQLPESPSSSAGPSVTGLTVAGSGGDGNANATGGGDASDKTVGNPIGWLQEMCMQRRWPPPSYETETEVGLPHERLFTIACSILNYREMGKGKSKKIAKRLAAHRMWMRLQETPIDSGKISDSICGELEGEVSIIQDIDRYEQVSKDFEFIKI
P1: ZFP36L1 (Homo sapiens); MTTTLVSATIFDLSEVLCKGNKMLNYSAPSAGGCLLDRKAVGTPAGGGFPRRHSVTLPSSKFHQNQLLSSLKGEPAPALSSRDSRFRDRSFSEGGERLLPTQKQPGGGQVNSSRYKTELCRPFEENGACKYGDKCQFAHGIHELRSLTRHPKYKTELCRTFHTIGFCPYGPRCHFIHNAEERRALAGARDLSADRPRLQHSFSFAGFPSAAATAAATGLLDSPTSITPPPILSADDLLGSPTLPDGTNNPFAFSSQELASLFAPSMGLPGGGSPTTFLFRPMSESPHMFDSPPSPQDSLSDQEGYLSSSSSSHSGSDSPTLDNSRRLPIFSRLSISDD
P2: Fgfr1 (Mus musculus); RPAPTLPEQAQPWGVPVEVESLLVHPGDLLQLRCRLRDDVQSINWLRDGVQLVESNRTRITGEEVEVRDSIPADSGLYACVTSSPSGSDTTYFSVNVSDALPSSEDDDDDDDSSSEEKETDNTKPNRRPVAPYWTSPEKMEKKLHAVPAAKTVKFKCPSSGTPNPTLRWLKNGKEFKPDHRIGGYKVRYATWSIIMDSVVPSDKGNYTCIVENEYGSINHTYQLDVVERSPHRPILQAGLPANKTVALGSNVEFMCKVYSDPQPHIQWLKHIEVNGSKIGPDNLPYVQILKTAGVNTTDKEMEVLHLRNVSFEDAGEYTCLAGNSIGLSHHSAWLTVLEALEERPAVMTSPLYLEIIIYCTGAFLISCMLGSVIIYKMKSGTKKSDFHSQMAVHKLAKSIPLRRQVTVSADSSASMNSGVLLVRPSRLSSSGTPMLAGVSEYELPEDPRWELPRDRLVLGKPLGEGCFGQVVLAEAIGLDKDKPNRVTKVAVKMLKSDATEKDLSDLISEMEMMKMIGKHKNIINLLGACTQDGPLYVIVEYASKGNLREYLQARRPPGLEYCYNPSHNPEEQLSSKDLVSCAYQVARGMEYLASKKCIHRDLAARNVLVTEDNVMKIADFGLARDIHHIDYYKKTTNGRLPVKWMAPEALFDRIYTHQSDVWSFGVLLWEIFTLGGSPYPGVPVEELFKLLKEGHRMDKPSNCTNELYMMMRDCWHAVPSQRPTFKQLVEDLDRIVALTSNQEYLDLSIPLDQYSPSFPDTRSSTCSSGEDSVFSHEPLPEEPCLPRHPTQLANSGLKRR

TGFB1I1/GFP Y38F/Y60F  PLA spots (TNS1 (Mus musculus); proximity ligation assay; read off a plot; higher = more proximity): 15 spots/cell
P1 S334D  relative binding (DCP1A (Homo sapiens); co-IP; HEK293T, lysate; read off a plot; reference: unchanged protein, higher = more binding): 190%
TTAAGTTTGACCATATCTTG (dsDNA)  binding (OsWRKY53 full length assumed (Oryza sativa, UniProt A7BEY7); EMSA; double-stranded DNA, one strand shown): binds
CGCCTGGCGCCAGAGA (dsDNA)  binding (SMAD3 1-145 (Homo sapiens, UniProt P84022); EMSA; double-stranded DNA, one strand shown): binds
GATCTCTGCGTGCGCGCTCATAGCCTACTG (dsDNA)  binding (GZF1; competition; double-stranded DNA, one strand shown): no binding
DC2 K142A (Homo sapiens)  relative binding (STT3A/OST STT3A complex (Homo sapiens); BN-PAGE immunoblot; reference: unchanged protein, higher = more complex): 35%
TTAATGTTGTTTCGTTTCCGCCA (dsDNA)  binding (CHES-1-like; competition; double-stranded DNA, one strand shown; not purified): no binding
AACGUACUUUAAGGCCUAUUGAGGAAACUC (ssDNA; all dC Pp-dC; all dU Nap-dU)  Kd (Pcsk9 31-691 (Rattus norvegicus, UniProt P59996); filter binding): 165 pM
GATCTCTGCGTGCGCGCTTATAGCCTACTG (dsDNA)  binding (GZF1; competition; double-stranded DNA, one strand shown): no binding
CUCCCUUCUGUGAAGGGGA (structured RNA; hairpin, 6 bp stem, UGU loop)  binding (RC3H1; crystal structure; folded RNA): binds
GUGUUGGUUUGCCAACAU (structured RNA)  binding (HNRNPL full length assumed (Homo sapiens, UniProt P14866); fluorescence quenching; folded RNA): binds
CACGCUCAUGCACACACCCACA (ssRNA)  binding (HNRNPL 193-270 (Homo sapiens, UniProt P14866); EMSA; RNA): no binding
AGGGGATAATGAAGAGAGAGAGAGAGAGAGTG (dsDNA)  binding (HRS1; EMSA; double-stranded DNA, one strand shown): binds
GATCTCTGCGTGCGCTTCTATAGCCTACTG (dsDNA)  binding (GZF1; competition; double-stranded DNA, one strand shown): binds
P2 L402A V408A Y442F Y745F Y755F  signal (PIK3R2 (Mus musculus); proximity ligation assay; embryo sections; read off a plot; higher = more proximity): 60 puncta
TTAATGTTGTTTTGTTTCCGCCA (dsDNA)  binding (CHES-1-like; EMSA; double-stranded DNA, one strand shown; not purified): binds
GATCTCTGCGTGCGCATCTATAGCCTACTG (dsDNA)  binding (GZF1; competition; double-stranded DNA, one strand shown): binds
TTATAGTTACAGAGAGAGAAAAACAACTTTAT (dsDNA)  binding (HRS1; EMSA; double-stranded DNA, one strand shown): binds
TTAATGGTTTGCCGTTGTCGCCA (dsDNA)  binding (CHES-1-like; competition; double-stranded DNA, one strand shown; not purified): no binding
GGGAACAGCCCAAUCAUCUAUCACGAUAGGGGGCUAUGCGUGAAAACAGAAGUUCACAGCAUAGCUCCUUUUUGUAUGGGCGCUUUACC (structured RNA)  binding (hutP full length assumed V51I; filter binding; folded RNA; together with: L-His, Mg2+): no binding
DNA 1 ATGTAGACTATAGTCGACA / DNA 2 TTGTCGACTATAGTCTACA (dsDNA; 1 nt 5' overhang)  binding (Regulatory protein 1-79 (Enterobacter sp., UniProt Q8GGH0); X-ray crystallography; double-stranded DNA): binds
RNA 1 UAAUACUGUCAGGUAAAGAUGUC / RNA 2 CAUCUUACCGGGCAGCAUUAGA (dsRNA)  binding (T1, loqs Loqs-PD, 1-359 (Drosophila melanogaster); fluorescence anisotropy; double-stranded RNA): binds
TATTTGGAATGCGCCATCATAAACCCGGCT (dsDNA)  binding (GZF1; competition; double-stranded DNA, one strand shown): no binding
CTAGTTGAAGGAAGAGAGGGAATGTGTGTTGG (dsDNA)  binding (HRS1; EMSA; double-stranded DNA, one strand shown): binds
GATCTCTGCGCATGCGTCTATAGCCTACTG (dsDNA)  binding (GZF1; competition; double-stranded DNA, one strand shown): no binding
GGGUAAUGCCCCUCCCCUCUCACACCUCCGGGAUCAGUGACCGGAGGGCGGUCGGGGAGGGGACACCU (structured RNA (Pyrococcus abyssi); hairpin, internal loop, K-turn)  binding (nop10 full length assumed (Pyrococcus abyssi, UniProt Q9V0E3); EMSA; folded RNA): no binding
TATTTGGAACATGCCGCTATAAACCCGGCT (dsDNA)  binding (GZF1; competition; double-stranded DNA, one strand shown): no binding
RNA 1 ACAUGUUUUCUGUGAAAACGGAG / RNA 2 ACAUGUUUUCUGUGAAAACGGAG (dsRNA; antiparallel duplex, unpaired middle)  binding (RC3H1; crystal structure; double-stranded RNA): binds
GGGAACAGCCCAAUCAUCUUAGACGAUAGGGGGCUAUGCGUGAAAACAGAAGUUCACAGCAUAGCUCCUUUUUGUAUGGGCGCUUUACC (structured RNA)  binding (hutP full length assumed V51I; filter binding; folded RNA; together with: L-His, Mg2+): no binding
TATTTGGGGTGCGCCGCTATAGGCCCGGCT (dsDNA)  binding (GZF1; competition; double-stranded DNA, one strand shown): binds

A few entries again:
GATCTCTGCGTGCGCTTCTATAGCCTACTG (dsDNA)  binding (GZF1; competition; double-stranded DNA, one strand shown): binds
GGGAACAGCCCAAUCAUCUAUCACGAUAGGGGGCUAUGCGUGAAAACAGAAGUUCACAGCAUAGCUCCUUUUUGUAUGGGCGCUUUACC (structured RNA)  binding (hutP full length assumed V51I; filter binding; folded RNA; together with: L-His, Mg2+): no binding
DC2 K142A (Homo sapiens)  relative binding (STT3A/OST STT3A complex (Homo sapiens); BN-PAGE immunoblot; reference: unchanged protein, higher = more complex): 35%
GATCTCTGCGTGCGCATCTATAGCCTACTG (dsDNA)  binding (GZF1; competition; double-stranded DNA, one strand shown): binds
TATTTGGAACATGCCGCTATAAACCCGGCT (dsDNA)  binding (GZF1; competition; double-stranded DNA, one strand shown): no binding
